Measured values from different studies.
Each numbered part is a random draw from the data of one study; scales do not carry over between parts.
Chain of UniProt Q8WXR4 (whole entry, looked up): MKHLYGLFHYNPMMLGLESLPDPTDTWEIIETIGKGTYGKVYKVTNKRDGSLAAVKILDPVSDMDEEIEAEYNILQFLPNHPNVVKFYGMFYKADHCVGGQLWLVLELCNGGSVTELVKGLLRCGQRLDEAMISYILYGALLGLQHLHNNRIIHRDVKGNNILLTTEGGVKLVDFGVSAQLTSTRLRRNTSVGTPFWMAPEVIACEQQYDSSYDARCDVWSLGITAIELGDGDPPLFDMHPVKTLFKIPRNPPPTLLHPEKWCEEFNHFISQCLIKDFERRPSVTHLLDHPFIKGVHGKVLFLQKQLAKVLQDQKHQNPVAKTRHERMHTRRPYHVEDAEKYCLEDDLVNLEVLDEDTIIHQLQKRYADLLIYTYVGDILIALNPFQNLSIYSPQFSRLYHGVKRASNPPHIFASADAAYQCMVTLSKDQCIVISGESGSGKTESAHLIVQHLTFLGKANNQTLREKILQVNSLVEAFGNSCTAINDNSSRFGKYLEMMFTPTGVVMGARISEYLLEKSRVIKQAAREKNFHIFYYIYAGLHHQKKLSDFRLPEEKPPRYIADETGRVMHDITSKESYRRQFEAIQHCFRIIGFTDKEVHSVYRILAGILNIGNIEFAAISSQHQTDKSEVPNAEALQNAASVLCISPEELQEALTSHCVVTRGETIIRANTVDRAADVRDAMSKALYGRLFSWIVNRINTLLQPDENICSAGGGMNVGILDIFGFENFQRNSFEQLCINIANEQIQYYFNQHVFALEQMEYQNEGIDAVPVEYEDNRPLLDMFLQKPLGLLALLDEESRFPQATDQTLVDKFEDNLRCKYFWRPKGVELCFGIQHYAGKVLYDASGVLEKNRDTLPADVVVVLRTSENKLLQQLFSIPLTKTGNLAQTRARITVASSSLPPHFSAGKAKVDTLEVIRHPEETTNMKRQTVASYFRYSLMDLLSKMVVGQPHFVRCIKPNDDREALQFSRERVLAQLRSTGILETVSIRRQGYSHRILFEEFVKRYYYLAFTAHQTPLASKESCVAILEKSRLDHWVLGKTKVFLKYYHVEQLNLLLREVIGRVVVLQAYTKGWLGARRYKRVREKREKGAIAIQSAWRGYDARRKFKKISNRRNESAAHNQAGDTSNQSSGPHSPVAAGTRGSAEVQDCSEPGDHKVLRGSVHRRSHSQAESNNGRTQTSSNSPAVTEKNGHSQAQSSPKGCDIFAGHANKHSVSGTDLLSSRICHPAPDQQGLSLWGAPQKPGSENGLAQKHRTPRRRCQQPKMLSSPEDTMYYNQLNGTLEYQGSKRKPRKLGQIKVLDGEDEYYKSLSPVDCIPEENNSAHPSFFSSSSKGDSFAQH
Chain of UniProt P00519 (whole entry, looked up): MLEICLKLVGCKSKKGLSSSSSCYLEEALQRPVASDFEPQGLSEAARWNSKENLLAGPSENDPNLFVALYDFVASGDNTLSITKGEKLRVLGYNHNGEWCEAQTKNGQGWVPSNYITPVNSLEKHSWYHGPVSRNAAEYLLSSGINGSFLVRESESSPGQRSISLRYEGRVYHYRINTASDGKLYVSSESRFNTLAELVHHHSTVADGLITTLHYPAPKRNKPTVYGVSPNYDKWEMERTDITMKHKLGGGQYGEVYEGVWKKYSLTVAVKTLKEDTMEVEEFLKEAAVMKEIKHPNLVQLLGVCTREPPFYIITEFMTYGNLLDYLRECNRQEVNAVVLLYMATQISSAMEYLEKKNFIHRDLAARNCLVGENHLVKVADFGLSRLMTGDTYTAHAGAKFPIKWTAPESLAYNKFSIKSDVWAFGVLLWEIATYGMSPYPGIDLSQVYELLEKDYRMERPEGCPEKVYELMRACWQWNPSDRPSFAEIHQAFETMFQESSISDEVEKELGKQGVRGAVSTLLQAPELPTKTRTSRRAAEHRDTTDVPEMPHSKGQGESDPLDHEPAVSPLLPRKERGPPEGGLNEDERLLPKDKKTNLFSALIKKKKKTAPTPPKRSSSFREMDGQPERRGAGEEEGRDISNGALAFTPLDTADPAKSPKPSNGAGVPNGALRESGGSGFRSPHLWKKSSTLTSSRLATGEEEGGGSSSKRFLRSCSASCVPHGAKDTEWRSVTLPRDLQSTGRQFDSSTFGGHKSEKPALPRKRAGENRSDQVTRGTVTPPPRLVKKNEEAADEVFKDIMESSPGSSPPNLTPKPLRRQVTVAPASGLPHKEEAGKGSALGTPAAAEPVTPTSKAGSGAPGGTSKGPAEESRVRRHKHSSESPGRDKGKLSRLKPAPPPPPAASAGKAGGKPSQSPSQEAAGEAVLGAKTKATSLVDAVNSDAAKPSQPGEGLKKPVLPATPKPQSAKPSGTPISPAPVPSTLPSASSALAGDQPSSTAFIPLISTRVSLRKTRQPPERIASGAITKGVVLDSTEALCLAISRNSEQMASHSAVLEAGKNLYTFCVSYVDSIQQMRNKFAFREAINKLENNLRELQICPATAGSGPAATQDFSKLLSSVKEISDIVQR
Chain of UniProt P42336 (whole entry, looked up): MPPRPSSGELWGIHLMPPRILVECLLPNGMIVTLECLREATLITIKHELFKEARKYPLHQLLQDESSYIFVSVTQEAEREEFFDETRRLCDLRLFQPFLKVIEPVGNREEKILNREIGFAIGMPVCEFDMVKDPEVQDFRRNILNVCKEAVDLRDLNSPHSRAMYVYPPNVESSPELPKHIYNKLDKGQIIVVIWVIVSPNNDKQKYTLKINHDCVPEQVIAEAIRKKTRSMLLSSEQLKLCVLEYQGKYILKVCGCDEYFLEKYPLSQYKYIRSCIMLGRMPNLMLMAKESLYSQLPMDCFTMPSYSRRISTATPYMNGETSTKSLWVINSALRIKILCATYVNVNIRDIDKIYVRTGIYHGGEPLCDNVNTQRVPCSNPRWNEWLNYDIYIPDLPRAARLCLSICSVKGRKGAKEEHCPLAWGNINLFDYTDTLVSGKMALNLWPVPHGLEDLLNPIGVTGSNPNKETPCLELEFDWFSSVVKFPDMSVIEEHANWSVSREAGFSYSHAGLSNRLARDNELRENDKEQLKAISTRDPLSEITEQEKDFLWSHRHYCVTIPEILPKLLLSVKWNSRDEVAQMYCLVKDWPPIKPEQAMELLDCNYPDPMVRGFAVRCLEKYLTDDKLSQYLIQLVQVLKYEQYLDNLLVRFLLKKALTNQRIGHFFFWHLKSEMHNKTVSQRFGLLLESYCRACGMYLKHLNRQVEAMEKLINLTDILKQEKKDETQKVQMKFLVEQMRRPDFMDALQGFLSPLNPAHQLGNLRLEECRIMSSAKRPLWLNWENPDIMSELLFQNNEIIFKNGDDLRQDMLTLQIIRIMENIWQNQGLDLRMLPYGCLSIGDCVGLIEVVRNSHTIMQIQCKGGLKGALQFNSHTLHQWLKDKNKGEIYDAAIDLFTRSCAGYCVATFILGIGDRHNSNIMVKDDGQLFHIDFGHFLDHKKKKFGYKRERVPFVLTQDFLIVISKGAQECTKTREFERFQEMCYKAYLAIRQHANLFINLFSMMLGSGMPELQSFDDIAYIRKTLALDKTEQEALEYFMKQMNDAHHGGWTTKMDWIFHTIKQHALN
Chain of UniProt Q99759 (whole entry, looked up): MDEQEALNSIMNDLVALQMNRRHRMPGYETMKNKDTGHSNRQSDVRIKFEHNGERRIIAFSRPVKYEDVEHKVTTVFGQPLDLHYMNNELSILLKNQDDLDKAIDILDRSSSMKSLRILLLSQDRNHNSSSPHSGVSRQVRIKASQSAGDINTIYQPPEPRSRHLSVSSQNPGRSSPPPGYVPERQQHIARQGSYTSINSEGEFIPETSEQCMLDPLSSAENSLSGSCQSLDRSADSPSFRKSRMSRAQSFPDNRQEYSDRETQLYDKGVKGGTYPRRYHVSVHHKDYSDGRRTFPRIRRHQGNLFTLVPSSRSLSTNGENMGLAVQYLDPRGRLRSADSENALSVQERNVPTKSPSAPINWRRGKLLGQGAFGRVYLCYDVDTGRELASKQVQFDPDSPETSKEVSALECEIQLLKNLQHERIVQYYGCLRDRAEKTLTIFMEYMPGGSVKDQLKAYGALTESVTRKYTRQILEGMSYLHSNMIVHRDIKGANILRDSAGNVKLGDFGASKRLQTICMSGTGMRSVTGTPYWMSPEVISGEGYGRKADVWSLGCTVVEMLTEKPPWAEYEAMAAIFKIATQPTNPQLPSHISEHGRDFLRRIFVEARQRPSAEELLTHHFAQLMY

Block 1
Target: Calcium/calmodulin-dependent protein kinase type II subunit alpha (CAMK2A, Homo sapiens, UniProt Q9UQM7)
Chain of UniProt Q9UQM7 (whole entry, looked up): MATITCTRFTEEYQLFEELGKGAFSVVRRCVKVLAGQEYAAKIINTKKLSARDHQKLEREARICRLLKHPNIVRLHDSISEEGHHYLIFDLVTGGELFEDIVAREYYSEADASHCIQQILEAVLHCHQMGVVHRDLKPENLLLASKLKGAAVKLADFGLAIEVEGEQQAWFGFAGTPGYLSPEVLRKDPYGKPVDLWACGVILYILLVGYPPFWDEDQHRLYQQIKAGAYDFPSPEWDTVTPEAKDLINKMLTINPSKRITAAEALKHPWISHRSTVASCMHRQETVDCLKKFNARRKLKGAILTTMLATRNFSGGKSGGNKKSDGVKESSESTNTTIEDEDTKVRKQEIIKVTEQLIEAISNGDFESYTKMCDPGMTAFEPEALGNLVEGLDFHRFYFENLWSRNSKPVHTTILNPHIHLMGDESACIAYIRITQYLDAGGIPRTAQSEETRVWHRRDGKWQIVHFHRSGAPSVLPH
Effect on: enzyme activity
Action: inhibitor
Tested at: 10 µM
| SMILES | inhibition [%] |
| --- | --- |
| CC[C@H]1OC(=O)[C@H](C)[C@@H](O[C@H]2C[C@@](C)(OC)[C@@H](O)[C@H](C)O2)[C@H](C)[C@@H](O[C@@H]2O[C@H](C)C[C@H](N(C)C)[C@H]2O)[C@](C)(O)C[C@@H](C)CN(C)[C@H](C)[C@@H](O)[C@]1(C)O | -2 |
| O=c1c(O[C@@H]2OC[C@H](O)[C@H](O)[C@H]2O)c(-c2ccc(O)c(O)c2)oc2cc(O)cc(O)c12 | -80 |
| C[C@H](CC(=O)C[C@@H](C)[C@H]1C[C@H](O)[C@@]2(C)C3=C(C(=O)C[C@]12C)[C@@]1(C)CCC(=O)C(C)(C)[C@@H]1C[C@@H]3O)C(=O)O | -41 |
| C[C@H](CC[C@@H](O[C@@H]1O[C@H](CO)[C@@H](O)[C@H](O)[C@H]1O[C@@H]1O[C@H](CO)[C@@H](O)[C@H](O)[C@H]1O)C(C)(C)O)[C@H]1CC[C@@]2(C)[C@@H]3CC=C4[C@@H](CC[C@H](O[C@@H]5O[C@H](CO)[C@@H](O)[C@H](O)[C@H]5O)C4(C)C)[C@]3(C)[C@H](O)C[C@]12C | -83 |
| O=C(O)Cc1cccc2ccccc12 | 4 |
| C=C(CC[C@@H](C(=O)O)[C@H]1[C@H](O)C[C@@]2(C)C3=C(CC[C@]12C)[C@@]1(C)CC[C@H](OC(C)=O)C(C)(C)[C@@H]1CC3)C(C)C | 2 |

Block 2
Effect on: AlphaScreen signal
Method: AlphaScreen counter screen
Medium: His6 peptide without bromodomain
Tested at: 50 µM
Setting: assay interference check
| SMILES | inhibition |
| --- | --- |
| O=c1c(-c2ccc(O)cc2)coc2cc(O)cc(O)c12.O=c1c(-c2ccc(O)cc2)coc2cc(O)cc(O)c12 | 14.2% |
| CCc1sc2nc[nH]c(=O)c2c1-c1ccccc1 | 11.8% |
| Cl.Cl.O=C1c2c(O)ccc(O)c2C(=O)c2c(NCCNCCO)ccc(NCCNCCO)c21 | 98.9% |
| CN1CCC(COc2cnc(-c3cccc(Cn4nc(-c5cccc(C#N)c5)ccc4=O)c3)nc2)CC1 | 12.7% |
| CNC(=O)c1nn(C)c2c1C(C)(C)Cc1cnc(Nc3ccc(N4CCN(C)CC4)cc3)nc1-2 | 54% |
| N#CC(=Cc1ccco1)c1nc2ccccc2s1 | 15.3% |
| O=S(=O)(c1cccc2c(I)cccc12)N1CCCNCC1 | 20.3% |

Block 3
Target: Mitogen-activated protein kinase 9 (MAPK9, Homo sapiens, UniProt P45984)
Chain of UniProt P45984 (whole entry, looked up): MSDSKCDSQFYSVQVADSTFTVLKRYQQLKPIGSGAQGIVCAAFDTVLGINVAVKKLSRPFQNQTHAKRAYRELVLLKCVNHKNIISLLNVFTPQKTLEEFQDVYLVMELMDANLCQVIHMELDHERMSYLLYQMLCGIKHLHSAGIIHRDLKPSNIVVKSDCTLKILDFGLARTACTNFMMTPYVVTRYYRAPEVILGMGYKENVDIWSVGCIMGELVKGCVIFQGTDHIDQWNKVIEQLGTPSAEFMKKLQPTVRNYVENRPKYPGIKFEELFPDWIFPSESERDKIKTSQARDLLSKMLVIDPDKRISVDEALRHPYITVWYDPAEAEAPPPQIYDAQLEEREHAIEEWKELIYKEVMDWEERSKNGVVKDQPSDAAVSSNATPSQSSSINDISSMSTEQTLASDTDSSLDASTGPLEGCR
Effect on: enzyme activity
Action: inhibitor
Tested at: 0.5 µM
Relative to: control
| Structure (SMILES) | remaining activity [%] |
| --- | --- |
| COc1ccc(OC)c2c(=S)c3ccccc3[nH]c12 | 102 |
| O=C1NC(=O)C(c2cn(CCCO)c3ncccc23)=C1c1cnccn1 | 100 |
| Nc1[nH]nc2nc3ccccc3nc12 | 103 |
| Oc1ccc(-c2nc(-c3ccncc3)c(-c3ccc(F)cc3)[nH]2)cc1 | 93.4 |
| COc1cc2ncnc(Nc3ccc(F)c(Cl)c3)c2cc1OCCCN1CCOCC1 | 95.5 |
| Cc1nc(-c2ccccc2)c(-c2ccncc2)o1 | 98.2 |
| O=c1c2ccccc2[nH]c(=S)n1CCN1CCC(=C(c2ccc(F)cc2)c2ccc(F)cc2)CC1 | 97 |
| Nc1ncnc2n[nH]c(Nc3ccc(F)cc3)c12 | 103 |
| COc1ccc(C(=O)Nc2sc3c(c2C(N)=O)CCCC3)cc1OC | 118 |
| N#CC(C#N)=C(N)/C(C#N)=C/c1ccc(O)cc1 | 105 |
| COc1ccc(CNC(=O)Nc2ncc([N+](=O)[O-])s2)cc1 | 135 |
| Cc1cccc(-c2[nH]c(C(C)(C)C)nc2-c2ccc3c(c2)OCO3)n1 | 98.2 |
| COc1cc2nccc(Oc3ccc(NC(=S)NC(=O)c4ccccc4C)cc3)c2cc1OC | 82.7 |
| CNC(=O)c1cc(Oc2ccc(NC(=O)Nc3ccc(Cl)c(C(F)(F)F)c3)cc2)ccn1 | 94.8 |
| O=C(CCCc1ccc(-c2ccccc2F)cc1)Nc1ccc(O)cc1 | 106 |

Block 4
SMILES: CNCc1ccccc1-c1csc([C@H](C)Nc2nc(C)nc3cc(OC)c(OC)cc23)c1
Effect on: cell-free assay
Method: competition with immobilised ligand
Tested at: 1 µM
| target | remaining binding |
| --- | --- |
| MAP3K3 (Homo sapiens, UniProt Q99759) | 87% |
| CSNK2A1 (Homo sapiens, UniProt P68400) | 91% |
| Myosin-IIIb (MYO3B, Homo sapiens, UniProt Q8WXR4) | 87% |
| PIK3CA (Homo sapiens, UniProt P42336) | 71% |
| ROCK1 (Homo sapiens, UniProt Q13464) | 93% |
| Tyrosine-protein kinase ABL1, non-phosphorylated (ABL1, Homo sapiens, UniProt P00519) | 87% |

Excerpt of the above (block 3):
| Structure (SMILES) | remaining activity [%] |
| --- | --- |
| COc1ccc(CNC(=O)Nc2ncc([N+](=O)[O-])s2)cc1 | 135 |
| Cc1cccc(-c2[nH]c(C(C)(C)C)nc2-c2ccc3c(c2)OCO3)n1 | 98.2 |
